Published values gathered from unrelated publications.
Each line is one published result; not all experiments were run side by side. Values joined by “and” are separate records of one study, mostly repeats; a detail may differ. Numbers after ± are the reported error.
HCRTR2 del254-292/I293E/K294R/L160H/M161K/Q254E: Orexin receptor type 2 (HCRTR2, Homo sapiens, UniProt O43614, del254-292/I293E/K294R/L160H/M161K/Q254E)
Sequence of UniProt O43614 (whole entry, unmodified, looked up): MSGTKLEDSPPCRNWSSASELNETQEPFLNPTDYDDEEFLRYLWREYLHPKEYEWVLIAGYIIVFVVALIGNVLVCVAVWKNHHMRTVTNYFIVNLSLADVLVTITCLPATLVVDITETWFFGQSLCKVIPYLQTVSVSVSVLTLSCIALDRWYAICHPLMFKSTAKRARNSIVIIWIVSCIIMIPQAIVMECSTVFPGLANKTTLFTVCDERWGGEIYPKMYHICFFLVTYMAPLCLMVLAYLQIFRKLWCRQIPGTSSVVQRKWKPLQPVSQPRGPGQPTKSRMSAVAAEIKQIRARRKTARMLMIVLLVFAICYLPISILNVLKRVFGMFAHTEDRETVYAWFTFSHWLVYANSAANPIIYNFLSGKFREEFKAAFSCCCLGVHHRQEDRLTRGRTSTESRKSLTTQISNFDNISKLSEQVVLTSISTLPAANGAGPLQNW
Sequence of UniProt Q13133 (whole entry, looked up): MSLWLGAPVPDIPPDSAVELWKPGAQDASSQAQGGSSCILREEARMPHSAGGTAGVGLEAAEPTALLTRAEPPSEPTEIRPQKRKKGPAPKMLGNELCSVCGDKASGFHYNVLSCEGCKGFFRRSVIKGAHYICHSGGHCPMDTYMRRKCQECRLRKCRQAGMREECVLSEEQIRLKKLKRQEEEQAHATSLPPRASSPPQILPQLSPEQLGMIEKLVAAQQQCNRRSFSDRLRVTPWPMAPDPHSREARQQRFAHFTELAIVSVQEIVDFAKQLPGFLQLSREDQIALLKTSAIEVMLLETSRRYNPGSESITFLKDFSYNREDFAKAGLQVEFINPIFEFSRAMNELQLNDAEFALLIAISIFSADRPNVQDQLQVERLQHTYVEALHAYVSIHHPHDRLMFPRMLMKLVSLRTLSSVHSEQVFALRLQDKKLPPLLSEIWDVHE

Molecule	tested on	test	test system	conditions	scale	endpoint	value
C.I. Basic Violet 14	HepaRG	ROS-Glo luminescence				maximal ROS response	-52.2 ± 76.9%
YMLDLQPEV	ASPC1 (HLA-A2− HPV−)	111In release	peptide	concentration not given, 16 h, E:T 25:1, IVS 5, together with: peptide-generated T-cell line		specific lysis	0.9%
aspterric acid		root length	Arabidopsis thaliana Col-0 seeds	6.25 µg/mL, 7 days, dark		inhibition	89.3%
KLPQLCTEV	ASPC1 (HLA-A2− HPV−)	111In release	peptide	concentration not given, 16 h, E:T 25:1, IVS 5, together with: peptide-generated T-cell line		specific lysis	-0.2% and 0.2%
VSYVPMQGALTQ	B-NHL cells	inhibitor, Western blot, measured: RELB, NFκB2, IKKα, phospho-IKKα	peptide	25 µM, 24 h		protein level	no effect
abamectin	HepG2	RNA-seq and ChIP-seq		10 µM, 24 h		regulated LRH-1 target genes	9.9%
EESDDLYIPAFLRKQLD	DLD-1	immunoblot, measured: beta-catenin	peptide, cytosolic fraction		baseline: non-transfected cells	degradation	> 50%
PSLLSSEDNADDEVDTRPASFWETS	Hepa1-6		peptide	concentration not given, 18 h, serum-free, together with: Jo2		Jo2-induced cell death	decreased
Ac-LRKLRKRLLRDWLKAFYDKVAEKLKEAF-NH2 (N-acetyl, C-amide)	THP-1 derived macrophages		peptide	2 h pulse, 24 h chase, heparin wash		cell-associated peptide	30 ± 1.1%
KISEYRHYV	Ca-Ski (HLA-A2+ HPV+)	111In release	peptide	concentration not given, 16 h, E:T 25:1 IVS 5, together with: peptide-generated T-cell line		specific lysis	24.2%
lead	U87 glioblastoma	CCK-8		2.5 µM, 24 h, unit not given	baseline: untreated control	viability	0.54
LPLKMLNIPSINVH	stimulated healthy donor PBMCs	multimer staining, measured: DRB1*01:01 tetramer	peptide	concentration not given, undiluted	baseline: CD4 T cells	antigen-specific CD4 T cells	0.53%
SFLLRNPNDKYEPF	BPAEC	fura-2	peptide	100 µM, 50% decay from peak		peak decay time	0.73 min
Nociceptin	HCRTR2 del254-292/I293E/K294R/L160H/M161K/Q254E	sensor fluorescence, fluorescence imaging	HEK293T	concentration not given, unit not given	baseline: baseline	ΔF/F0	0.836 and 0.236 and -0.5 and 1.2 and 0.0374 and -1.9 and 0.301 and 0.349
LWWGMAKYCAAKLTCMC	HS-SY-II	degrader, transient transfection, measured: SS18-SSX1	peptide	concentration not given, 3 days		protein level reduction	> 40%
Ivermectin	Oxysterols receptor LXR-alpha (NR1H3, Homo sapiens, UniProt Q13133)	receptor activity, inhibitor	cells			IC50	6.03 ± 4.39 µM

Molecule	tested on	test	test system	conditions	scale	endpoint	value
LHKLLHHLLHHLHKLLHHLHHLLHKLC	human red blood cells	hemolysis	peptide	1 h, pH 5.5	baseline: Triton X-100	EC50	31 µM
nonaarginine	PorA peptide pore	peptide binding, planar bilayer single-channel recording		0.5 µM, pH 7.4, -25 mV, cis side, 150 mM KCl		koff	526 ± 53 s⁻¹
CRQLRKGKFFSEGGSGGTSFEQFWAWLWP	786-O cells	cell viability, CCK-8	peptide	48 h		IC50	0.305 µM
TVFYNIPPMPL	PBMCs from EBV-positive healthy donor	HLA-DRB1*07:01 tetramer	peptide	concentration not given, uninduced	baseline: CD4 T cells	tetramer-positive CD4 T cells	0.06%
KLPQLCTEL	HN-30 (HLA-A2− HPV+)	111In release	peptide	concentration not given, 16 h, E:T 25:1 IVS 5, together with: peptide-generated T-cell line		specific lysis	3%
DPDPE		RP-HPLC	HALO Phenyl-hexyl column	25 µM, formic acid/methanol, 10 min gradient		retention time	8.73 min
Tunicamycin	HEK293	western blot, measured: ATF4		10 µg/mL, 6 h, unit not given	baseline: mock	protein level	1.13 and 1.25 and 1.91
KISEYRHYC	ASPC1 (HLA-A2− HPV−)	111In release	peptide	concentration not given, 16 h, E:T 25:1, IVS 5, together with: peptide-generated T-cell line		specific lysis	-1.1% and 0.5%
CLDPVDTPNPTR	RAW264.7	Western blot	peptide	concentration not given, 6 h pretreatment, together with: LPS 30 min		p-p38/p38 ratio	0.44 ± 0.11
Apelin	OVCAR-3	Transwell		concentration not given, 7 to 8 h	baseline: control	cell migration	2.5 fold
capreomycin sulfate			guinea pig, serum	insufflation, dose not given, dry powder combination single dose		AUC(0-t)	4370 ng·h/mL
CEMDGQCKRDLKCCMGMCGKSCVSPVKA	RAW264.7	Western blot	peptide	concentration not given, 6 h pretreatment, together with: LPS 30 min		p-ERK/ERK ratio	0.57 ± 0.05
cucurbitacin B	MP46 (BAP1-mutant uveal melanoma)	cell viability, CellTiter-Glo		72 h		IC50	0.0511 µM
melanin-concentrating hormone	HCRTR2 del254-292/I293E/K294R/L160H/M161K/Q254E	sensor fluorescence, fluorescence imaging	HEK293T	concentration not given, unit not given	baseline: baseline	ΔF/F0	0.31 and 0.846 and 2.07 and 0.894 and 1.88 and -4.37 and -9.46 and 4.47
RTLEDLLMGT	HN12 (HLA-A2+ HPV+)	111In release	peptide	concentration not given, 16 h, E:T 25:1 IVS 5, together with: peptide-generated T-cell line		specific lysis	34.6%
insulin human		measured: QSER1 mRNA	uninfected mouse, brain	i.p., dose not given	baseline: PBS	fold change	1.2

For quick reference, copied from above:
Molecule	tested on	test	test system	conditions	scale	endpoint	value
CEMDGQCKRDLKCCMGMCGKSCVSPVKA	RAW264.7	Western blot	peptide	concentration not given, 6 h pretreatment, together with: LPS 30 min		p-ERK/ERK ratio	0.57 ± 0.05
cucurbitacin B	MP46 (BAP1-mutant uveal melanoma)	cell viability, CellTiter-Glo		72 h		IC50	0.0511 µM
melanin-concentrating hormone	HCRTR2 del254-292/I293E/K294R/L160H/M161K/Q254E	sensor fluorescence, fluorescence imaging	HEK293T	concentration not given, unit not given	baseline: baseline	ΔF/F0	0.31 and 0.846 and 2.07 and 0.894 and 1.88 and -4.37 and -9.46 and 4.47
